Measurements gathered from unrelated publications.
Each numbered part is a random draw from the data of one study; scales do not carry over between parts. “And” joins repeats or separate records; there may be more than shown.
UniProt O70423, sequence (whole entry, looked up): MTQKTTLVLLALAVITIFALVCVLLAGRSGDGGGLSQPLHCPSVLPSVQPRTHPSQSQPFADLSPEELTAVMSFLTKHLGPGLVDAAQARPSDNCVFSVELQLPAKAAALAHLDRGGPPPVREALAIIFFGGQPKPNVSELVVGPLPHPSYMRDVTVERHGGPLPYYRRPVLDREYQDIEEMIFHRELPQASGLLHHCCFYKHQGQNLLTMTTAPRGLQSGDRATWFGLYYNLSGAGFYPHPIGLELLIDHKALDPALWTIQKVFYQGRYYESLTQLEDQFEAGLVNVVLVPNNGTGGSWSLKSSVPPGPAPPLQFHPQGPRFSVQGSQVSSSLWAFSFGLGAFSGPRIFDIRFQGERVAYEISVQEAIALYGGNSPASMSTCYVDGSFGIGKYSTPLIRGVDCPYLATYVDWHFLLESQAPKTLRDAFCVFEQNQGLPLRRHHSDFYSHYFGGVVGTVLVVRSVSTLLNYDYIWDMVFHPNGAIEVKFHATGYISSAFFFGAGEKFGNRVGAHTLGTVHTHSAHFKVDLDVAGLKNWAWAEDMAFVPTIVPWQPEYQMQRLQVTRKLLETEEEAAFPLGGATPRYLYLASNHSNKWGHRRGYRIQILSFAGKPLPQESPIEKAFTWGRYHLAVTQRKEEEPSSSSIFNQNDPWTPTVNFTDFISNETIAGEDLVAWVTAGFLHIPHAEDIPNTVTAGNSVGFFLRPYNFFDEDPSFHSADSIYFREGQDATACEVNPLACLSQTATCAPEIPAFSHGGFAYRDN
UniProt O08590, sequence (whole entry, looked up): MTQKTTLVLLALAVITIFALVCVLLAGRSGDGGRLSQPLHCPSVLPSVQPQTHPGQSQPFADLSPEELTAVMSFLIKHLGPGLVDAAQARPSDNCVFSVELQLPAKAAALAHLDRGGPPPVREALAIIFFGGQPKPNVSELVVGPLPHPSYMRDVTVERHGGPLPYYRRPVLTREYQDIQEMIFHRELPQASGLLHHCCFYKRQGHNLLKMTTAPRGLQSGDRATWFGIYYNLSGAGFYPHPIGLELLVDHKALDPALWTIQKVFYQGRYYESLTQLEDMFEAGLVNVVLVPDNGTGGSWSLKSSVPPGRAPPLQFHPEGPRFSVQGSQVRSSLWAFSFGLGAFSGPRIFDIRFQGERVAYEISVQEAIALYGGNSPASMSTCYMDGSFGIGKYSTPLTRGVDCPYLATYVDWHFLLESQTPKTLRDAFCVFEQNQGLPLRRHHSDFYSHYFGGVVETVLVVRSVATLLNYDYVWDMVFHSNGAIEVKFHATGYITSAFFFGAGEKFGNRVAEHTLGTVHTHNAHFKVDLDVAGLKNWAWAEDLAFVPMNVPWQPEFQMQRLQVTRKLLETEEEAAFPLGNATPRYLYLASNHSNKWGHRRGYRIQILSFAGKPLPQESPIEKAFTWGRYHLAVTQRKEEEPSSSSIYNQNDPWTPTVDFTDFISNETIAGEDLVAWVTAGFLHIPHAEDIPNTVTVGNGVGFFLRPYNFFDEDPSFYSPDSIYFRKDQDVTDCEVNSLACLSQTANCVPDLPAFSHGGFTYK
UniProt P27338, sequence (whole entry, looked up): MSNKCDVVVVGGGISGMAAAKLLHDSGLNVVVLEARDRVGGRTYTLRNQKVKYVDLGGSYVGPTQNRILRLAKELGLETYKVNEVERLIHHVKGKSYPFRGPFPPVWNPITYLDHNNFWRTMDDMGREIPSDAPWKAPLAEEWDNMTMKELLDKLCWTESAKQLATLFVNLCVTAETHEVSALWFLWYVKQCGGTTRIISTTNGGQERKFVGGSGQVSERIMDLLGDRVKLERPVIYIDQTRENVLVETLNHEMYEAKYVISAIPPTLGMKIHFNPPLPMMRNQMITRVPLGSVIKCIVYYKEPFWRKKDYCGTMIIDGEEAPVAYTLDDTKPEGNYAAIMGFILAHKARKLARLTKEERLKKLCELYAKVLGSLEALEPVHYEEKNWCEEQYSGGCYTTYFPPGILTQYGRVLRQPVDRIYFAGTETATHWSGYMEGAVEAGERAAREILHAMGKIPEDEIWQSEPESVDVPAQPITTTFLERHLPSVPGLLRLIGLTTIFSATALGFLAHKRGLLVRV
UniProt Q9UBE8, sequence (whole entry, looked up): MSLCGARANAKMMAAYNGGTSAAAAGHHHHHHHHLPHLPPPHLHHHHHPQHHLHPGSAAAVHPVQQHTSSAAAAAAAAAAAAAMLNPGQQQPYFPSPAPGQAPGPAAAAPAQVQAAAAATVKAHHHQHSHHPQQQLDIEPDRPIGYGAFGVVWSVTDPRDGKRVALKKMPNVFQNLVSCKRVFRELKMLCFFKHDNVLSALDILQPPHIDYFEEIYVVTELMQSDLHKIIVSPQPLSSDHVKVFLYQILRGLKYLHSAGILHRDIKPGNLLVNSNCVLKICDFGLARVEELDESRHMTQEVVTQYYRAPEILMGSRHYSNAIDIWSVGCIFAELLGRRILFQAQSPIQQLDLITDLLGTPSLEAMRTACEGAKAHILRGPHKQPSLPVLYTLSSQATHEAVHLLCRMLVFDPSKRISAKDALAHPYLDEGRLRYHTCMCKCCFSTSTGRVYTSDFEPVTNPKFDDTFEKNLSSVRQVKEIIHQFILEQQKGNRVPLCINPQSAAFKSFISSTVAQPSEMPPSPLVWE
UniProt P11802, sequence (whole entry, looked up): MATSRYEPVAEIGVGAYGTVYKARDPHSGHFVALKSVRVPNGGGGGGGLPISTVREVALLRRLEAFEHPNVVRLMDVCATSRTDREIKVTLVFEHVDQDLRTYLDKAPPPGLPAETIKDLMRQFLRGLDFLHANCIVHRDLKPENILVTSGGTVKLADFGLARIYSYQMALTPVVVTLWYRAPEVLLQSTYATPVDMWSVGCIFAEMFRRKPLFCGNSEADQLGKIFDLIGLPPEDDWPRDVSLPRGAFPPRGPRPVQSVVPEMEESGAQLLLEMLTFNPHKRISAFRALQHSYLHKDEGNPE

Series 1
SMILES: Cc1ccc(O)c(C)c1-c1cnc2[nH]c(-c3cnc(N4CCC5(CC4)CC(CN4CCN(c6ccc(NC7CCC(=O)NC7=O)cc6F)CC4)C5)nc3)cc2c1C#N (centres unmarked)
Target: Membrane-associated tyrosine- and threonine-specific cdc2-inhibitory kinase (PKMYT1, Homo sapiens, UniProt Q99640)
Residues (Q99640 1-499): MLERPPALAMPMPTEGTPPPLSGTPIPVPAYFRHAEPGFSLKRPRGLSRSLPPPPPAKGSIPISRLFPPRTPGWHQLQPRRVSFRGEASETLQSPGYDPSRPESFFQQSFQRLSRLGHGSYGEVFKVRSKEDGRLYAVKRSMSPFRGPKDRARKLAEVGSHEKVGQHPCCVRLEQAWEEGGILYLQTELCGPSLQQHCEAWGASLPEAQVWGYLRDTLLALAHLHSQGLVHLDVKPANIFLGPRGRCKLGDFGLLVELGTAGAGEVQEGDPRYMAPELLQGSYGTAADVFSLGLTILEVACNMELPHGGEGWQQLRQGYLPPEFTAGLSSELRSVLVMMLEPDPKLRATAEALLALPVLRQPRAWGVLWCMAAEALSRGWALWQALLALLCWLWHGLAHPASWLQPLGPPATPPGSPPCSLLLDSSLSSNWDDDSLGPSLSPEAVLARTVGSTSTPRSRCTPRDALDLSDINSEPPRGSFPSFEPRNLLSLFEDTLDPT
observed	action	technique	tested at	inhibition [%]
			0.03704 µM	94
			0.00046 µM	-3.82
cell-free assay	inhibitor	TR-FRET	1 µM	99.9
cell-free assay	inhibitor	TR-FRET	4.12 nM	33.5
			1 µM	99.6
cell-free assay	inhibitor	TR-FRET	0.3333 µM	99.5
			0.1111 µM	97.6
cell-free assay	inhibitor	TR-FRET	37.04 nM	93.4
cell-free assay	inhibitor	TR-FRET	1.37 nM	7.41
			5.1e-05 µM	-8.31

Series 2
SMILES: CS(=O)(=O)c1ccc(OC/C(=C/F)CN)cc1.Cl
MAOA: Amine oxidase [flavin-containing] A (MAOA, Homo sapiens, UniProt P21397)
UniProt P21397, sequence (whole entry, looked up): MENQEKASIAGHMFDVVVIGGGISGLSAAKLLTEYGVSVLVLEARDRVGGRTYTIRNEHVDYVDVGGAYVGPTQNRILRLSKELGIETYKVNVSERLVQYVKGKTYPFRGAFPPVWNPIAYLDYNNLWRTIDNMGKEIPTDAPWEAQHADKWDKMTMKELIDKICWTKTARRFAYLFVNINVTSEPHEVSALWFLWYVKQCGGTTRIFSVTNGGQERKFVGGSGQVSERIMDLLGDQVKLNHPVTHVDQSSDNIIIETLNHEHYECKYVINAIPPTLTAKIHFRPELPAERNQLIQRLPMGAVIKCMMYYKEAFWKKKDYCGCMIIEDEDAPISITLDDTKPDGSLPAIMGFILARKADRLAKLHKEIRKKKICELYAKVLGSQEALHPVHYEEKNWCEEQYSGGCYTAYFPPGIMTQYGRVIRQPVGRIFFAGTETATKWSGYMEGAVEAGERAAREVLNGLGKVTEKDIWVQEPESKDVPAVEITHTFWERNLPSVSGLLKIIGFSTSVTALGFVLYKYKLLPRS
target	observed	action	sample	tested at	inhibition
Amine oxidase [copper-containing] 3 (Rattus norvegicus, UniProt O08590)			rat adipose tissue	0.1111 µM	99.2%
Amine oxidase [copper-containing] 3 (Mus musculus, UniProt O70423)			mouse adipose tissue	0.0005 µM	17.3%
MAOA	enzyme activity	inhibitor		200 pM	-3.05% and -8.33%
Amine oxidase [copper-containing] 3 (Mus musculus, UniProt O70423)			mouse adipose tissue	0.3333 µM	99%
MAOA	enzyme activity	inhibitor		0.3704 µM	2.81% and 6.79% and 7.34% and 1.49% and 0.0485%
MAOB (Homo sapiens, UniProt P27338)	enzyme activity	inhibitor		30 µM	14.2% and 11%
Amine oxidase [copper-containing] 3 (Rattus norvegicus, UniProt O08590)			rat adipose tissue	1.694e-05 µM	-22.1%
Amine oxidase [copper-containing] 3 (Mus musculus, UniProt O70423)			mouse adipose tissue	0.1111 µM	98.7%

Series 3
Structure (SMILES): C[C@@H]1CN(c2ccc(-c3cc(C(=O)NCCOCCOCCOCCOCCNC(=O)Cn4cc(-c5[nH]cc(C(=O)N[C@@H](CC(N)=O)c6ccc(F)c(Cl)c6)c5-c5ccc(Cl)cc5F)cn4)ccc3F)cc2NC(=O)c2c[nH]c(=O)cc2C(F)(F)F)C[C@H](C)N1C
Observed: thermal unfolding
Technique: differential scanning fluorimetry
Tested at: 5.5 µM
Reading: higher = more unfolded
DCAF1: DDB1- and CUL4-associated factor 1 (DCAF1, Homo sapiens, UniProt Q9Y4B6)
UniProt Q9Y4B6, sequence (whole entry, looked up): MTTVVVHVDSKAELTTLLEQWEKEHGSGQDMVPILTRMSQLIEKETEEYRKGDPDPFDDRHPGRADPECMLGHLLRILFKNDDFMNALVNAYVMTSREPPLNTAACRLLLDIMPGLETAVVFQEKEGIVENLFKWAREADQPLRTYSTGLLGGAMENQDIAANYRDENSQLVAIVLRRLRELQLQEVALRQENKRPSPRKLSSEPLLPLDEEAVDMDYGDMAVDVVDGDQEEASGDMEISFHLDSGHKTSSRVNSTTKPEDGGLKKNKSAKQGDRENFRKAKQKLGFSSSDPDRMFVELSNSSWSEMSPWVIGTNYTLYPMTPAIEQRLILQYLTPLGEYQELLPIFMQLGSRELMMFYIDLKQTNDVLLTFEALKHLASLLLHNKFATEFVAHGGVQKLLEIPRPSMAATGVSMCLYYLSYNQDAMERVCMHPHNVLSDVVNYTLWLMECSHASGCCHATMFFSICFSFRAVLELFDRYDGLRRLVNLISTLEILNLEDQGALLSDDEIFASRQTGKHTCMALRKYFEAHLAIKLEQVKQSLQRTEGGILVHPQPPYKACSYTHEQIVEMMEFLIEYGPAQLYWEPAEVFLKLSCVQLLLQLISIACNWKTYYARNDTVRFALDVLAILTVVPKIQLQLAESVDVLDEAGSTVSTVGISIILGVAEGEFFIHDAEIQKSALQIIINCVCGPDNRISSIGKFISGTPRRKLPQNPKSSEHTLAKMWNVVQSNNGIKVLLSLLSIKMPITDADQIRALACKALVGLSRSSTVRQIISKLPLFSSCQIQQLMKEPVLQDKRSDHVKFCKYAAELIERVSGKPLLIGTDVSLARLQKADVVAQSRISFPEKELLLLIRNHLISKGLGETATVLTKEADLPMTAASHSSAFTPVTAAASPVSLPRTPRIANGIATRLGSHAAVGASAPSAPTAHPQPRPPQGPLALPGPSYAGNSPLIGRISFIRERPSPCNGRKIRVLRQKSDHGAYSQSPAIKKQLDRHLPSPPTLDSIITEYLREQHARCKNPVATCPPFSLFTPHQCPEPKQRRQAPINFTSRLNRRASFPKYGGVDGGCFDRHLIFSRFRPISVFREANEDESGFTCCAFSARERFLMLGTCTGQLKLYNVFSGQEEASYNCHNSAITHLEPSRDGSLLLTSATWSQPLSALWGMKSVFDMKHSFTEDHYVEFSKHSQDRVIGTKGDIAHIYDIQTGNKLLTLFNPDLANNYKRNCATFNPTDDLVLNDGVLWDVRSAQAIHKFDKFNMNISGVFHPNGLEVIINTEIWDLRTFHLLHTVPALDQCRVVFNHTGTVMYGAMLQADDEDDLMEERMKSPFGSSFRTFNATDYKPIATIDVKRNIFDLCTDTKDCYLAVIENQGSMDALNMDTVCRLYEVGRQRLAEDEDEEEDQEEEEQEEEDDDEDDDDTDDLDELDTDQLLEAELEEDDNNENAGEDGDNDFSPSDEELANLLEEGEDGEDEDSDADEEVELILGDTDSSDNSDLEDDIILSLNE
WDR5: WD repeat-containing protein 5 (WDR5, Homo sapiens, UniProt P61964)
target	temperature	SYPRO Orange fluorescence [a.u.]
DCAF1	50.4 °C	14800
WDR5	73.01 °C	8370
WDR5	62.21 °C	9170
DCAF1	36 °C	9190
WDR5	43.2 °C	14400
DCAF1	57.01 °C	24900
WDR5	52.41 °C	14400
WDR5	37.2 °C	14400
WDR5	90.21 °C	43000
DCAF1	85.41 °C	39300
WDR5	55.81 °C	13100

Series 4
SMILES: CC[C@@]1(c2cccc(-c3c(F)cncc3OC)c2)C2=C(Nc3n[nH]cc31)[C@H](F)C(C)(C)CC2=O (single isomer, unassigned)
Tested at: 1 µM
target	observed	technique	reference	remaining binding
FLT3 ITD/F691L, human		KINOMEscan		65%
MAP3K14 (Homo sapiens, UniProt Q99558)	kinase binding	KINOMEscan	DMSO control	60%
EGFR (Homo sapiens, UniProt P00533, del746-750)	binding	competition with immobilised ligand		86%
INSRR (Homo sapiens, UniProt P14616)	binding	competition with immobilised ligand		90%
PAK4 (Homo sapiens, UniProt O96013)	binding	competition with immobilised ligand		100%
SRPK3 (Homo sapiens, UniProt Q9UPE1)	binding	competition with immobilised ligand		84%
PLK1 (Homo sapiens, UniProt P53350)	kinase binding	KINOMEscan	DMSO control	56%
CDK4 (Homo sapiens, UniProt P11802)	kinase binding	KINOMEscan	DMSO control	44%
PRKD2 (Homo sapiens, UniProt Q9BZL6)	binding	competition with immobilised ligand		100%
CLK2 (Homo sapiens, UniProt P49760)	binding	competition with immobilised ligand		53%
STK4 (Homo sapiens, UniProt Q13043)	kinase binding	KINOMEscan	DMSO control	81%
NLK (Homo sapiens, UniProt Q9UBE8)	kinase binding	KINOMEscan	DMSO control	100%
STK16 (Homo sapiens, UniProt O75716)	binding	competition with immobilised ligand		78%
Tyrosine-protein kinase ABL1, non-phosphorylated (ABL1, Homo sapiens, UniProt P00519)	binding	competition with immobilised ligand		100%
MAP3K3 (Homo sapiens, UniProt Q99759)	kinase binding	KINOMEscan	DMSO control	73%

Excerpt of the above (series 1):
observed	action	technique	tested at	inhibition [%]
cell-free assay	inhibitor	TR-FRET	37.04 nM	93.4
			1 µM	99.6
cell-free assay	inhibitor	TR-FRET	1.37 nM	7.41
			0.03704 µM	94
cell-free assay	inhibitor	TR-FRET	0.3333 µM	99.5
